Experimental data gathered from unrelated publications.
Compare with care: the assays were run in different laboratories.

CC[C@H](C)[C@H](NC(=O)[C@@H](NC(=O)[C@H](CC(=O)O)NC(C)=O)[C@@H](C)O)C(=O)N[C@@H](CCCNC(=N)N)C(=O)N[C@@H](CC(C)C)C(=O)N[C@@H](CC(C)C)C(=O)N[C@@H](Cc1ccccc1)C(=O)N[C@@H](CCC(N)=O)C(=O)N[C@@H](CC(C)C)C(=O)N[C@@H](CCSC)C(=O)N[C@@H](CCCNC(=N)N)C(=O)N1CCC[C@H]1C(=O)N1CCC[C@H]1C(=O)N[C@@H](CC(N)=O)C(=O)N[C@@H](CCSC)C(=O)N[C@H](C(=O)N1CCC[C@H]1C(=O)N[C@@H](C)C(=O)N[C@H](C(=O)N[C@@H](CC(N)=O)C(=O)N[C@@H](C)C(N)=O)C(C)C)[C@@H](C)O
α4β7− CCR9+ cells (measured: HA-29 tetramer; antigen-experienced tetramer+ CD4 T cells, healthy adults, HLA-DRB1*0101; dose not given): 0%

CC(C)C[C@H](NC(=O)CNC(=O)[C@H](CCC(=O)O)NC(=O)[C@H](CCCCN)NC(=O)[C@H](CC(C)C)NC(=O)[C@H](C)NC(=O)[C@H](C)NC(=O)CNC(=O)[C@H](C)NC(=O)[C@H](CCCCN)NC(=O)[C@H](CCC(=O)O)NC(=O)[C@H](CC(C)C)NC(=O)[C@H](CCCCN)NC(=O)[C@H](CCCCN)NC(=O)[C@H](CC(C)C)NC(=O)[C@H](CC(C)C)NC(=O)[C@H](CCCCN)NC(=O)[C@H](Cc1c[nH]c2ccccc12)NC(=O)[C@@H](N)CCCCN)C(=O)N[C@@H](CC(C)C)C(=O)N[C@@H](CCCCN)C(=O)N[C@@H](C)C(=O)NCC(=O)N1CCC[C@H]1C(=O)N[C@@H](C)C(=O)N[C@@H](CC(C)C)C(=O)N[C@@H](C)C(=O)N[C@@H](CC(C)C)C(=O)N[C@@H](CC(C)C)C(=O)NCC(=O)N[C@@H](C)C(=O)N[C@@H](C)C(=O)N[C@@H](C)C(=O)N[C@@H](C)C(=O)N[C@@H](CC(C)C)C(=O)N[C@@H](C)C(=O)N[C@@H](CCCCN)C(N)=O
DPX/ANTS release rate ratio (POPC/POPG 1:1 vesicles; reference: DPX over ANTS): 8.5

Cc1ccc(/C=C/C(=O)O)cc1-c1cc2c(cc1C)C(C)(C)CCC2(C)C
log2 fold change (RNA sequencing, measured: Nmu; rat, brain; dose not given, 24 h; reference: vehicle): -0.062

Cc1cc(O)cc(C)c1CC(N)C(=O)NC1CCNc2c(F)cc(Cc3ccccc3)cc21 (centres unmarked)
antinociception (warm water tail withdrawal; male C57BL/6 mice; intraperitoneal, 10 mg/kg): inactive

CC(C)C[C@H](NC(=O)[C@H](C)NC(=O)CNC(=O)[C@H](CO)NC(=O)CNC(=O)[C@H](CCCNC(=N)N)NC(=O)[C@H](CCCNC(=N)N)NC(=O)[C@H](CCCNC(=N)N)NC(=O)[C@H](CCC(N)=O)NC(=O)[C@H](CCCNC(=N)N)NC(=O)[C@H](CCCNC(=N)N)NC(=O)[C@H](CCCCN)NC(=O)[C@H](CCCCN)NC(=O)[C@H](CCCNC(=N)N)NC(=O)CNC(=O)[C@@H](N)Cc1ccc(O)cc1)C(=O)N[C@@H](CO)C(=O)N[C@H](C(=O)N[C@@H](CCC(=O)O)C(=O)N[C@@H](CCCNC(=N)N)C(=O)O)[C@@H](C)O
STAT phosphorylation (inhibitor; isolated rat heart; concentration not given, ischemia/reperfusion): no inhibition

CCCCc1ccc(S(=O)(=O)N2CC2C(=O)OC)cc1 (centres unmarked)
effective dose (arterial thrombus formation, electrical stimulation; rat, carotid artery thrombosis model): 0.05 µmol/kg

COC[C@@H](NC(C)=O)C(=O)NCc1ccc(OCc2ccc(OC(F)(F)F)cc2)cc1
licking time (formalin test, phase II; mouse; ip, 8.0 mg/kg; reference: vehicle): 55%

CC[C@H](C)[C@H](NC(=O)[C@H](Cc1c[nH]c2ccccc12)NC(=O)[C@H](CCCNC(=N)N)NC(=O)[C@H](CCCCN)NC(=O)[C@H](CC(C)C)NC(=O)[C@H](CC(=O)O)NC(=O)[C@H](Cc1ccccc1)NC(=O)[C@H](C)NC(=O)[C@H](Cc1ccc(O)cc1)NC(=O)[C@H](CC(N)=O)NC(=O)[C@H](Cc1ccc(O)cc1)NC(=O)[C@H](CCCNC(=N)N)NC(=O)[C@H](Cc1ccc(O)cc1)NC(=O)[C@H](Cc1ccc(O)cc1)NC(=O)[C@@H](NC(=O)[C@H](CC(C)C)NC(=O)[C@H](C)NC(=O)[C@H](CC(N)=O)NC(=O)[C@H](Cc1ccc(O)cc1)NC(C)=O)[C@@H](C)CC)C(=O)N[C@@H](Cc1ccc(O)cc1)C(=O)N[C@@H](CC(C)C)C(N)=O
α4β7− CCR9− cells (measured: HA-52 tetramer; antigen-experienced tetramer+ CD4 T cells, healthy adults, HLA-DRB1*0101; dose not given): 57.1%

Excerpt of the above:
Cc1ccc(/C=C/C(=O)O)cc1-c1cc2c(cc1C)C(C)(C)CCC2(C)C
log2 fold change (RNA sequencing, measured: Nmu; rat, brain; dose not given, 24 h; reference: vehicle): -0.062
